Experimental data of several laboratories.
Numbered parts are unrelated; each lists some results of a single study. Positions count from the first letter of the parent shown.

Study 1
Target: RNA binding protein fox-1 homolog 2, RRM domain, GST-SBP tag (RBFOX2, Homo sapiens, UniProt O43251-10, residues 100-194)
Method: RNA Bind-n-Seq
Form: RNA
Matrix: in vitro
Tested at: 365 nM
Setting: natural RNA segment, single round, ends assumed
Reference: no-protein control
Direction: higher = stronger binding
Residues (chain): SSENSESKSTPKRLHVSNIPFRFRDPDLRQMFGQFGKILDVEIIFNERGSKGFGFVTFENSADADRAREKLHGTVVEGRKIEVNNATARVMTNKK
Oligonucleotide | RBNS enrichment (R)
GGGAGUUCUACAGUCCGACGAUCAGGUGAGGGCUUUGUACACGUGUGUCCUCUGCUGUCAUGAACUUGGGCUGGACUGUGAGCAGCUCUGGGUUAAUACAGGGCAGGCAAUCCUUAAACAGCUAGCAUGAAACUGGAAUUCUCGGGUGCCAA | 8.93
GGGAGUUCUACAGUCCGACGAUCCGCAUCCUGAGGCUCUCACUGACCGAGCAGUACGCCCCCUGCCGGGACCCUCGCCAGCGCCACGCGCGCCACGCCCAGGGCCAGGAGCCAGACAAACCCCGGCCUGCGCGUGGAAUUCUCGGGUGCCAA | 0.485
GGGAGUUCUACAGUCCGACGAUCCUGUCAAAUGCAGUAGAUGAUGAAAGAAAGGUUGGUAUUAUCAGGAAAUGUUUUCUUAAGCUUUUCCUUUCUCUUACACCUGCCAUGCCUCCCCAAAUUGGGCAUUUAAUUGGAAUUCUCGGGUGCCAA | 0.31
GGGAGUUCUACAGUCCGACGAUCUCUCCCCUGGGACCAGCUGGAGGGCCACAUGCACACACAGCCUAGCUGCCCCCAGGGAGCUCUGCUGCCCUUGCUGGCCCUGCCCUUCCCACAGGUGAGCAGGGCUCCUGUGGAAUUCUCGGGUGCCAA | 1.32
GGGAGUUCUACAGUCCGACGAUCAGUUCUUUGUAUGAUGCACUUUGGACCCACCCUCUCCUCAUGUCACUACUUUGCACACUUCCUCCAUGCUCUCACUUUGAAGGAAGCCUGGAUGAGGCUAGUGACUCUGUUGGAAUUCUCGGGUGCCAA | 0.602
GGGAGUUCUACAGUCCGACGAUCUCCCCAGACCCCUGCUGCCAGCCACCAGCGCCAGCCUCGGGGACCUCCGGCCGUCCCUACCGACAGUGUUUGCCAAAGACAGGAGGCUGGAGGUGGACAGACCGCACGGUUGGAAUUCUCGGGUGCCAA | 0.468
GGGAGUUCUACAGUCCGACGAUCCGCUGGAAAUCCAGUUCUUCAGGAACUGCCUUCCUCCCUAAUUCUGCUCUUGCUUUUCAGAGAGCCAUCAUGGUCAUGUCAUGCUGAGGUCACAUGUAUAAAAUUAGCUUUGGAAUUCUCGGGUGCCAA | 0.89
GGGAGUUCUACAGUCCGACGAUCAGGUCAGCCGAGUAUGGUAGUGCACACCUGUAAUCCUGGCACUCAGGAGACUGAGGCAAGAGCCUCGUAGCAUUAGCUGCAUAGCAAGUUUGAAACCAGUCUGCACUACAUGGAAUUCUCGGGUGCCAA | 0.398
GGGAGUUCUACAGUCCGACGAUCGUGCGCCAGUUUGGGUUGCCGUUACCAGUUCAAUAUAGCCCUGCAUUUAAAAUUCCUUUUAAGAUUCGUGGAUUUUAUUUUUAUUAAGUAUAUAGAUAUAUAAAGUACUGUGGAAUUCUCGGGUGCCAA | 1.37
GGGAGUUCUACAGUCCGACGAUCGUCAAGUCAGCCAGAGGAAAGAGGUCGAGUUGACAGCAGCAGGCACUGCCCUUCCUAGUUGGUGGCUGCCAUGUUGGACUGUGGAUCUAAACACUUCUAGAGCUUUGUGGUGGAAUUCUCGGGUGCCAA | 0.924
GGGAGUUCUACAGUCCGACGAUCGGCAGGUGGGUGGCACAGCAUAAGAACCCAGCUGGGGCCAGCCCUCCCUGUCCUGGCUGGUCAGUGUGCCCCCACCCACACUGUCCAGCCCCUUAGCCCAUGUCAUGUCAUGGAAUUCUCGGGUGCCAA | 1.25
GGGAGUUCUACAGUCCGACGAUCUUCCUUCAUGCCGCCAUGUUCCUGAUAUUAGUUCUGAUUUCUUUUUAACAAAUGUUAUCAUGAUUAAGAAAAUUUCCAGCACUUUAAUGGCCAAUUAACUGAGAAUGUAAUGGAAUUCUCGGGUGCCAA | 0.874

Study 2
Target: CCNB2, cyclin fold, Cln2 fusion (human)
Method: yeast growth competition, sequencing
Matrix: yeast
Setting: weak parent motif
Reference: not given
Direction: higher = stronger binding
Starting sequence: PLK5 docking peptide (human); IFRKVGQRLLTQC
Variant | normalised enrichment score
IFRKVAQRLLTQC [G6A] | 0.542
IFRKAGQRLLTQC [V5A] | 0.0334
IFRKVGQRALTQC [L9A] | 0.359
IFRKVGQRLATQC [L10A] | -0.212
IFAKVGQRLLTQC [R3A] | 0.305
IFRKVGQRLLAQC [T11A] | 0.732

Study 3
Target: Histone acetyltransferase KAT6A, both winged helices, GST fusion (KAT6A, Homo sapiens, UniProt Q92794, residues 1-181)
Method: protein binding microarray
Form: double-stranded DNA, one strand shown
Matrix: in vitro
Tested at: not given
Setting: 8-mer, flanks averaged, mean of 2 arrays, mostly near background
Reference: not given
Direction: higher = stronger binding
Target sequence (chain): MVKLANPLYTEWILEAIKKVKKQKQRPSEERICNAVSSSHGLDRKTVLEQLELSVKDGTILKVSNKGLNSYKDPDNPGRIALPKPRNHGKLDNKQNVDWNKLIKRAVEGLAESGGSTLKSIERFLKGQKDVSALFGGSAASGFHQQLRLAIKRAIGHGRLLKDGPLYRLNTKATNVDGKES
Oligonucleotide | E-score
GCGGAGAC | 0.291
ACAGTCAT | -0.0472
AGTTCCCA | -0.0902
GGATGGCC | -0.0393
CAATAACA | -0.0971
AACCAGAG | -0.137
TAAATAGA | 0.0714
CTAGTAGC | -0.00708
GGCGGACA | 0.172
CAAGATCA | -0.114
ACGGAGAA | 0.118
ACGGTTAC | 0.204
TAAATCGA | -0.0707
CGCGGCGC | 0.391
CCCCGCAG | 0.148
GTATTATA | 0.00128
ACGATGCA | -0.169
CGGGAGAG | 0.0979
CCGACATC | 0.1
CCTAGCAC | -0.0345
AACATTCG | -0.0133
ACCGTTGG | -0.0295
TAAAGTGA | -0.124

Study 4
Target: Hepatocyte nuclear factor 3-alpha (Foxa1, Mus musculus, UniProt P35582, residues 1-468, full length assumed)
Method: EMSA with sequencing
Form: double-stranded DNA, one strand shown
Matrix: in vitro
Tested at: 10 and 20 nM
Setting: whole designed probe, mean of two concentrations, ends assumed
Reference: negative control set to 0
Direction: higher = stronger binding
Residues (chain): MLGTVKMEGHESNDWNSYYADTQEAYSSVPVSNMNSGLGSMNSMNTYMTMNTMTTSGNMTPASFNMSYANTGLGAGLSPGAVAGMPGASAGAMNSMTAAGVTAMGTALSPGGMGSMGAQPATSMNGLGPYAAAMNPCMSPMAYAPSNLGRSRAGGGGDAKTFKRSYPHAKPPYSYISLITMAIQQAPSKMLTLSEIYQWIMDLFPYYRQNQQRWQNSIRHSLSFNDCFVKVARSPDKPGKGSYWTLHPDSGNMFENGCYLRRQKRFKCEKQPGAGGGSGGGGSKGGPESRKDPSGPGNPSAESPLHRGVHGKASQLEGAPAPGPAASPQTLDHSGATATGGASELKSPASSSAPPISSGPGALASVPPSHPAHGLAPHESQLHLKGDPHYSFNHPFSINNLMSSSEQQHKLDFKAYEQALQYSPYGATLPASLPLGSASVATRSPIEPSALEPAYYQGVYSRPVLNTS
Oligonucleotide | normalised bound fraction [ratio]
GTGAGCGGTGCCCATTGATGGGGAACATCTTCCCCCTCTTCCTTGCCCCACCAGCTCACCTACGGGGGTTATTTGCACAAAGGAAAATAAATAAAGCCGGCATTCGTTAACCCTCTTCTGGCGCAAACTGCTGTTTGCTCTGGATCTAACATGGTCCTTTGGCGACGCCAGGCTCCGGGAGAGCAAAGCACCGTGTCAGGGCCATGATCCGGGGTGGCCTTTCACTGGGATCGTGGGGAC | 0.382
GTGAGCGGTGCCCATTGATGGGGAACATTAGTTCATGCCAGGCAGGGTTTGACCAAAACCTTGGACTCACTCCTGTCTGCTTTCCTTCAGTGACTAAGAGGATTCCTGAGATGGATGTGCAATCTTGAAGAGATTACTTTCCTCCATGGGAATGTACTTCTGGCTTCCACTCCTCAGCTGCTGCTGCTAAGCCAGTGAGATAGATGGTGGTTTGGAAACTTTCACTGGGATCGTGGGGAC | -0.024
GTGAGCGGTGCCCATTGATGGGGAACTTATGATCTGAGTATATATAGTAAGTACCTCCCCTTTCAGGGTAAGGCAGTAGGTAATGGTGAAAAGGTGACAGGGAAGCAACTCAGGTTGAGTAAACAACACCAAGCATATCTGACTCAAGGAATGCTTCAGAGGCCAGGGGTGCATGCCTGTAATCCCAGCACCTTGGAAGGCTGACACAGGAGGATCACTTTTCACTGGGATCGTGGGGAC | 0.403
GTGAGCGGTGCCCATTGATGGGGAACATCTTCCCCCTCTTCCTTGCCCCACCAGCTCACCTTCCCGGGTATATTGGAGATAGGAAATTAATATAAGCCGGCATTCGTTAACCCTCTTCACGCGCATACTGCTGTTTGCTCTGGATGAATCATGGTCCTTTGGCGACGCCAGGCTCCGGGAGAGCAAAGCACCGTGTCAGGGCCATGATCCGGGGTGGCCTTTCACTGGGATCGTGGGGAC | 0.115
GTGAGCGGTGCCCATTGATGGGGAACATTTGACTGACATTTGACATTACAGGATTCGCCCTGCTGTCATCCCTGTGCTAGGCACAATGTTTGCAACCCTTCCTGTGTTGTTATCTTGCTGTTTACATTGAGTCCCAGATCTGGCTGAAGGGGTAAAAATCCTTTGTTCCATCTGTGTAAACATACATGACCTGATCTCTGCCCACTGACAACATCCAAATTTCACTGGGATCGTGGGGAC | 0.457
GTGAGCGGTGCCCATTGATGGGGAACTCTGCGTCTAGCTCTGGAGCTCAGACTGGAACTGCTCAGCAGGAAACAGGTCTTGCTGCTAGTAAATTACCATGACTGTGTTTACATGGTGAGTCATCTGGCATAGGTCAGCTCTCCTTCTCTCCAAGCAGTCCCTTGAGCTGATGATTTATCTGGGTAAATCACATTCCAAATCAATTTTATTTTTGGCTGTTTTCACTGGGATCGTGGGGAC | 0.129
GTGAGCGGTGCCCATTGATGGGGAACAAAATACCTACTGAAATTAAAATACCAGGATAGGACAAAATGATCTTTGATGTTGTTTCCAATTATCTCGTGTTTGTTCTAGGCACTGGCTATGTCAACAAAGCTTCGCCTTTTTTTTTTTTTCATGGTGACACAACCATGGCTGTGTTCAGGTTTACATGTTCTTACTTGTGTATTGGGGAAGGTTGGCCCCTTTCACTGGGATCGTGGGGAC | 0.469
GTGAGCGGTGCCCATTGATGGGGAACTGTGCCTGAGCAAGCTGTGTTTGCTCATCGTCTGGACAAACCTTGTTGAATCTTGTCAGGAAACTTTTTACATTGCTCCTTGGCAAATAGTGCTATTTACTTTGTTTAAATACCTGCAGGAAATAACACAATTGAGCAAACTAGAGACAAGGACAGTTAGTGTATTGAGTATTTTTTTCTCAATTTATTATGCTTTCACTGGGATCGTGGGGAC | 0.421
